{"data": "Experimental data of several laboratories", "note": "Each numbered part is a random draw from the data of one study; scales do not carry over between parts. Changes are numbered by the printed parent chain."}
{"data": "Study 1", "target": "Histone acetyltransferase KAT6A, winged helix 2, GST fusion (KAT6A, Homo sapiens, UniProt Q92794, residues 85-181)", "method": "protein binding microarray", "form": "double-stranded DNA, one strand shown", "matrix": "in vitro", "concentration": "not given", "setting": "8-mer, flanks averaged, mean of 2 arrays, mostly near background", "reference": "not given", "direction": "higher = stronger binding", "Residues (chain)": "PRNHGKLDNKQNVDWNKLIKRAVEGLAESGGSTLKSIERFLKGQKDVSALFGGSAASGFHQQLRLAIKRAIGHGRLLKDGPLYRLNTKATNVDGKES"}
{"Sequence": "GCCGCACC", "E-score": 0.0857}
{"Sequence": "AGATGGGA", "E-score": -0.217}
{"Sequence": "ATCGGAAG", "E-score": -0.0462}
{"Sequence": "ATGTTTTG", "E-score": 0.0325}
{"Sequence": "ATGGATGA", "E-score": -0.149}
{"Sequence": "AACGTTGG", "E-score": -0.143}
{"Sequence": "GAAATGTC", "E-score": -0.043}
{"Sequence": "ATACGTAG", "E-score": -0.16}
{"Sequence": "ACAAATTA", "E-score": 0.00018}
{"Sequence": "CATTGTAC", "E-score": -0.15}
{"Sequence": "ACTGGGCG", "E-score": -0.0468}
{"Sequence": "ACAGTAGT", "E-score": -0.112}
{"Sequence": "CGGGTGGC", "E-score": 0.227}
{"data": "Study 2", "target": "CCND2, cyclin fold, Cln2 fusion (human)", "method": "yeast growth competition, sequencing", "matrix": "yeast", "setting": "weak parent motif", "reference": "not given", "direction": "higher = stronger binding", "starting sequence": "PKMYT1 docking peptide (human); SFEPRNLLSLFED; partner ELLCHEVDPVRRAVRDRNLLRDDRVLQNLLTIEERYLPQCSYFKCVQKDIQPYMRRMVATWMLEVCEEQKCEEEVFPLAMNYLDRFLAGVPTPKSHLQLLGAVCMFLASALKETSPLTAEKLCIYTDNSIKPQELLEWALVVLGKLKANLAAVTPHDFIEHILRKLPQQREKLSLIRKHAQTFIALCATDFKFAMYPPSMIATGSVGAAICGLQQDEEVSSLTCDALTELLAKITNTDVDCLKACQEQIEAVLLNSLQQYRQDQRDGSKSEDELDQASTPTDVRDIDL"}
{"Change": "SMEPRNLLSLFED [F2M]", "normalised enrichment score": -0.14}
{"Change": "SFEPRNLWSLFED [L8W]", "normalised enrichment score": 0.185}
{"Change": "LFEPRNLLSLFED [S1L]", "normalised enrichment score": 0.0242}
{"Change": "CFEPRNLLSLFED [S1C]", "normalised enrichment score": -0.194}
{"Change": "SFEPRNLLSLMED [F11M]", "normalised enrichment score": 0.00361}
{"Change": "SFEPRNLLCLFED [S9C]", "normalised enrichment score": -0.00505}
{"Change": "SFEPRNRLSLFED [L7R]", "normalised enrichment score": 0.00921}
{"data": "Study 3", "target": "Ras GTPase-activating protein-binding protein 1, full length (G3BP1, Homo sapiens, UniProt Q13283)", "method": "RNA Bind-n-Seq", "form": "RNA", "matrix": "in vitro", "concentration": "200 nM", "setting": "whole 134-nt RNA, ends assumed", "together with": "150 mM KCl", "reference": "input library", "direction": "higher = stronger binding", "shared flanks, not repeated": "GGGAGUUCUACAGUCCGACGAUC … UGGAAUUCUCGGGUGUCAAGG", "UniProt Q13283, sequence (whole entry, looked up)": "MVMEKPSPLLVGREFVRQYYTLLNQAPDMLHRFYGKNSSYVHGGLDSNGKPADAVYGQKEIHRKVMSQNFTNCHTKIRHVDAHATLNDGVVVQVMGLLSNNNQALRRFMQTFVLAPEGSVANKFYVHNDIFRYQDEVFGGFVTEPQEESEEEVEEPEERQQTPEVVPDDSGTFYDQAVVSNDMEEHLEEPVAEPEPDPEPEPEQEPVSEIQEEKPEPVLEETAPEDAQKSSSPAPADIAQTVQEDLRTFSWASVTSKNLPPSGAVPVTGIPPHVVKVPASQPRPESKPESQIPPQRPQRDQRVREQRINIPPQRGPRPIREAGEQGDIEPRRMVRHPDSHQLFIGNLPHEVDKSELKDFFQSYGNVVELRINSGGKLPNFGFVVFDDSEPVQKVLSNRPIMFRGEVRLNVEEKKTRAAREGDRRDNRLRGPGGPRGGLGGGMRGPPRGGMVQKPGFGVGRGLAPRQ"}
{"Sequence": "AGGCUAUGGAGGCUAUGAUGAUUACAAUGGCUAUAAUGAUGGCUAUGGAUUUGGGUCAGAUAGAUUUGGAAGAGGUAAGGUAAGAAUUGA", "log2 enrichment": 0.447}
{"Sequence": "CAAGUCCUGUGCUACACAUCGUAUGUACCGAAUCGGUUUUUGGAGGUUUUUUUGGAAAGUAUUAUGUUACGCCGUUCGGAUCUGCACUUC", "log2 enrichment": -0.714}
{"Sequence": "CCUGUGCUACACAUCGUAUGUACCGAAUCGGGGAAAAAAAGGGGAAAAAAAGGGGUGGGGAAAGUAUUAUGUUACGCCGUUCGGAUCUGC", "log2 enrichment": 0.272}
{"Sequence": "UGGCCCUGGUGGCAUGCGGGGAGGCAGAGGUGGCCUCAUGGAUCGUGGUGGUCCCGGUGGAAUGUUCAGAGGUGGCCGUGGUGGAGACAG", "log2 enrichment": 0.173}
{"Sequence": "UCCUGUGCUACACAUCGUAUGUACCGAAUCGGGGAAAAAGGGGAAAGGGGUUUUUGGGGAAAGUAUUAUGUUACGCCGUUCGGAUCUGCA", "log2 enrichment": 0.764}
{"Sequence": "UCAAGUCCUGUGCUACACAUCGUAUGUACCGAAUCGGUUUGGGGUUUGGUUUGGGAAAGUAUUAUGUUACGCCGUUCGGAUCUGCACUUC", "log2 enrichment": -0.54}
{"Sequence": "AGUCCUGUGCUACACAUCGUAUGUACCGAAUCGGGUUUUGGGGUUUUGGGUUUUGGGAAAGUAUUAUGUUACGCCGUUCGGAUCUGCACU", "log2 enrichment": -0.117}
{"Sequence": "AAGUCCUGUGCUACACAUCGUAUGUACCGAAUCAAAUUUAAAUUUAAACCCCCAAAAAAGUAUUAUGUUACGCCGUUCGGAUCUGCACUU", "log2 enrichment": -0.277}
{"data": "Single results of other studies"}
{"Substance": "PhoQ, residues 284 288 289 292 302 303 SSTLLI", "target": "PhoP, residues 12 14 15 18 19 VQALL (Escherichia coli, UniProt P23836)", "assay": "Sort-seq, refers to: YFP reporter", "test system": "E. coli", "setting": "PhoQ-PhoP variant library, together with: 10 µM Mg2+", "how to read": "reference: high Mg2+ state, higher = stronger signaling", "endpoint": "fold induction", "result": 5.47}
{"note": "For quick reference, copied from above (study 1):"}
{"Sequence": "AGATGGGA", "E-score": -0.217}
{"Sequence": "ATCGGAAG", "E-score": -0.0462}
{"Sequence": "ATGTTTTG", "E-score": 0.0325}
{"Sequence": "ATGGATGA", "E-score": -0.149}
